Measured values gathered from unrelated publications.
Each numbered part is a random draw from the data of one study; scales do not carry over between parts.
Sequence of UniProt P21860 (whole entry, looked up): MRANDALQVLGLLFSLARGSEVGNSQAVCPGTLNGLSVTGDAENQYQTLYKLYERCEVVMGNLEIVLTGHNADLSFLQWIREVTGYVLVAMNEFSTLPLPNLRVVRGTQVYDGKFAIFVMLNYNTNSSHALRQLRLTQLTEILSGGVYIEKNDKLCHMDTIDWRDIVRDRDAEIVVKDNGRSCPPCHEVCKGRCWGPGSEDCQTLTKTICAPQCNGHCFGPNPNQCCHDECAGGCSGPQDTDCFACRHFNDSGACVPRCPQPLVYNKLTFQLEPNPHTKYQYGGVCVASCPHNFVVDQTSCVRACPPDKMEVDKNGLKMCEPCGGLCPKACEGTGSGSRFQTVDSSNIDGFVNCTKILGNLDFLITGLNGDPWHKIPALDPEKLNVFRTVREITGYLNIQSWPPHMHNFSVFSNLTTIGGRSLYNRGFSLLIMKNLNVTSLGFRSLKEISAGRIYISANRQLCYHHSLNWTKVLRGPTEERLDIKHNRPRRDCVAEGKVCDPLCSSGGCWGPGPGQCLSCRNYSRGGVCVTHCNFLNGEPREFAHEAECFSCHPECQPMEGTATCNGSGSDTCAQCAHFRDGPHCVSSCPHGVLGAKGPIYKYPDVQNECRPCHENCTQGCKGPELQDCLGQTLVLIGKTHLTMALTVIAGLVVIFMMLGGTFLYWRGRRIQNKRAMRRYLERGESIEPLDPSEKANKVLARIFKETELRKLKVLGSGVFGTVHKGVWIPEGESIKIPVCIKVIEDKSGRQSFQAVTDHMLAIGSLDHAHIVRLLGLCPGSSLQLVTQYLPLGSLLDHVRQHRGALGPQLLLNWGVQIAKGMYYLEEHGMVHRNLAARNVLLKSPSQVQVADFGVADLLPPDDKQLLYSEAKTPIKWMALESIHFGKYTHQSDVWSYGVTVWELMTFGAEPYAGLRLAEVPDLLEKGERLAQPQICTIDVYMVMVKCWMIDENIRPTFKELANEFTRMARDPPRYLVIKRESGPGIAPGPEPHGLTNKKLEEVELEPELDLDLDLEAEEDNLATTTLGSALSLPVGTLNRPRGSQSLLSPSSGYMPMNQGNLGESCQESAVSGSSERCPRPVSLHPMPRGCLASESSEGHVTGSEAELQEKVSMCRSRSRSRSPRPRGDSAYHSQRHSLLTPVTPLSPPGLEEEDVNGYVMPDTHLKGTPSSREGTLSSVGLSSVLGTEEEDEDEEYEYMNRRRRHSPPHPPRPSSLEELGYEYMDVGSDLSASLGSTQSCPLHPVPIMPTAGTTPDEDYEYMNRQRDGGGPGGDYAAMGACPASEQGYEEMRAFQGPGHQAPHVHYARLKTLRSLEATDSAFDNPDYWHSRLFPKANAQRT
Sequence of UniProt Q13464 (whole entry, looked up): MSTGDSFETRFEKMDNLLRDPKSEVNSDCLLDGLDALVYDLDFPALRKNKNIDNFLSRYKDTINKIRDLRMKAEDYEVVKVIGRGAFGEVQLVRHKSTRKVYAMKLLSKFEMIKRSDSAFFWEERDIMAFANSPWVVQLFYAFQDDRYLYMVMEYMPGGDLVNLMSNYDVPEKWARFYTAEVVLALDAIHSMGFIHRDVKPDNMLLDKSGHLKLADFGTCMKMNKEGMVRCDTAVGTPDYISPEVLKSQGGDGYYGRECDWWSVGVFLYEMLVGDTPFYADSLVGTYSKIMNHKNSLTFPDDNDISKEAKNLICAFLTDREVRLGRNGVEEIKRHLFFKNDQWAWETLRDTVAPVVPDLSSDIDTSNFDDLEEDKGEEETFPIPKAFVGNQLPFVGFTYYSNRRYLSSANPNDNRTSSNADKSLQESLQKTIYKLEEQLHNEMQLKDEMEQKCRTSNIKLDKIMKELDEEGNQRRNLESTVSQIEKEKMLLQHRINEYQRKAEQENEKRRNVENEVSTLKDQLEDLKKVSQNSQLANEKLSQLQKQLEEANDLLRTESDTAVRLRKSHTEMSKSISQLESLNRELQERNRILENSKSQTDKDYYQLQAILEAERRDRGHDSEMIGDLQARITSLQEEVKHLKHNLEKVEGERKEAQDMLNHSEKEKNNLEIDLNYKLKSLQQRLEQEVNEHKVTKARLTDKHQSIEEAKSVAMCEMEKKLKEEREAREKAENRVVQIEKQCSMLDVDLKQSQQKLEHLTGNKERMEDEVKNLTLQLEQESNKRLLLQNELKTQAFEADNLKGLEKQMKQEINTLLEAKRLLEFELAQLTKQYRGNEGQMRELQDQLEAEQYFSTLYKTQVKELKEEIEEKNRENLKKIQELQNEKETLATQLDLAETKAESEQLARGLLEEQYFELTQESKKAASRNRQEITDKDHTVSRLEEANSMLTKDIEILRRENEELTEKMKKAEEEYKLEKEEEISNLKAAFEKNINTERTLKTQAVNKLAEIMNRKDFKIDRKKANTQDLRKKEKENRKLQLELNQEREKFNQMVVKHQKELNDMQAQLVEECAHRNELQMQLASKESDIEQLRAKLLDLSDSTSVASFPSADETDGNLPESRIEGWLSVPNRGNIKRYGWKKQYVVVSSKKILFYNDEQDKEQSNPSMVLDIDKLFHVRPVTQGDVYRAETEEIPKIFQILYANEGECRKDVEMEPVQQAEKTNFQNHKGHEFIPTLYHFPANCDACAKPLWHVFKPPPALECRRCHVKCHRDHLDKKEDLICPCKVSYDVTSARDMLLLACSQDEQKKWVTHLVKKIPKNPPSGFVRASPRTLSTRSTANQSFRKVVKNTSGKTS
Sequence of UniProt O00329 (whole entry, looked up): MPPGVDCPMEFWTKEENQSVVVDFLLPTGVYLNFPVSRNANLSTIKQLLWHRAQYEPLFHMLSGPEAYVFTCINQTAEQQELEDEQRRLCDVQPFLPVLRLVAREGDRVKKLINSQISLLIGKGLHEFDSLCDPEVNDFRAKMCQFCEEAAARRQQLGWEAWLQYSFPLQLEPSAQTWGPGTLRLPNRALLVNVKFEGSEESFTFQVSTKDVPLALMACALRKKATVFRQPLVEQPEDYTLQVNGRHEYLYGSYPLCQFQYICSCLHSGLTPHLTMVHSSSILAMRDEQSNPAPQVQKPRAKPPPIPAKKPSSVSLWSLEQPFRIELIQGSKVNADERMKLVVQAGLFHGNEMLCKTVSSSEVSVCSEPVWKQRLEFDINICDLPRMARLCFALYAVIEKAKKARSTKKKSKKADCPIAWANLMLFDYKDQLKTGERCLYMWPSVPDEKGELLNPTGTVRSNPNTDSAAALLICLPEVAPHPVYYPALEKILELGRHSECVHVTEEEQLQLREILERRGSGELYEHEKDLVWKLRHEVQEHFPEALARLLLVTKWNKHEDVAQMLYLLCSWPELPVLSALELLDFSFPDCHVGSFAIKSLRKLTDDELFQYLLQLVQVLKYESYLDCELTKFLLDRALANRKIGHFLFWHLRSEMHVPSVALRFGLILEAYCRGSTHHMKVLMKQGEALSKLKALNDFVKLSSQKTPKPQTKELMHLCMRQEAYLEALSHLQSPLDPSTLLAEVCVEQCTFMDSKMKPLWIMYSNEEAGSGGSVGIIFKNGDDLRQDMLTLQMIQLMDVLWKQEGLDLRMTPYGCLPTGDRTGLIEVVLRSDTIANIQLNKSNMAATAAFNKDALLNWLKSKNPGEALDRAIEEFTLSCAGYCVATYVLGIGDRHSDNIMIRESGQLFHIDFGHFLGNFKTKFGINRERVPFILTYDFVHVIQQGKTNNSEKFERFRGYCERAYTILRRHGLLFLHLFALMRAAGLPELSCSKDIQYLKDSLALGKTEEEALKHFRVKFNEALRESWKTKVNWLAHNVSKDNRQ
Sequence of UniProt Q99558 (whole entry, looked up): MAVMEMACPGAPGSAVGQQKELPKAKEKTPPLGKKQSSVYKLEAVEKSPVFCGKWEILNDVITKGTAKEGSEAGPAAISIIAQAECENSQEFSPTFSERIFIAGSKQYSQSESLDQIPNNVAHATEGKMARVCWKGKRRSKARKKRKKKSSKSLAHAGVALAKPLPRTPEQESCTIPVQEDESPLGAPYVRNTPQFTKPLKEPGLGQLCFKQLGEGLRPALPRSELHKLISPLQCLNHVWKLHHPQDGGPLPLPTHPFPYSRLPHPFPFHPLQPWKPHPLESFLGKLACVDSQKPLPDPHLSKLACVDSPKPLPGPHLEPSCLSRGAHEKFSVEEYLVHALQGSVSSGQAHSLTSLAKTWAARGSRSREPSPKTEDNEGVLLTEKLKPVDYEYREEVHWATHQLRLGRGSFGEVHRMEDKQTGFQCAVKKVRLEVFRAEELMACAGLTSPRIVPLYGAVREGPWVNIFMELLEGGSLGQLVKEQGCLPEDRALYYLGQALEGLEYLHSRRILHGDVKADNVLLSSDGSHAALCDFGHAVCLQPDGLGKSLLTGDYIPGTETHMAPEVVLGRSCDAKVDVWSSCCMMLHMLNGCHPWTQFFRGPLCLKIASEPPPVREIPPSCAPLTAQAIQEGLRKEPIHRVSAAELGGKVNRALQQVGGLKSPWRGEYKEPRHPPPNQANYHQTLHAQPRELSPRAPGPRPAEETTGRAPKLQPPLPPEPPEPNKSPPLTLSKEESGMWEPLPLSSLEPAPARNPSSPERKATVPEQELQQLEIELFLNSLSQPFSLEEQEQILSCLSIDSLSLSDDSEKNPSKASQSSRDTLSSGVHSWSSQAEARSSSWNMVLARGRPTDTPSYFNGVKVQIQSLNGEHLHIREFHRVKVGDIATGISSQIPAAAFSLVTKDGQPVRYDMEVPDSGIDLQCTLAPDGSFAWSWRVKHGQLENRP

Study 1 — effect on: enzyme activity; mode: inhibitor; concentration: 0.5 µM; reference: control; endpoint: remaining activity
Target: Serine/threonine-protein kinase Sgk1 (SGK1, Homo sapiens, UniProt O00141)
Sequence of UniProt O00141 (whole entry, looked up): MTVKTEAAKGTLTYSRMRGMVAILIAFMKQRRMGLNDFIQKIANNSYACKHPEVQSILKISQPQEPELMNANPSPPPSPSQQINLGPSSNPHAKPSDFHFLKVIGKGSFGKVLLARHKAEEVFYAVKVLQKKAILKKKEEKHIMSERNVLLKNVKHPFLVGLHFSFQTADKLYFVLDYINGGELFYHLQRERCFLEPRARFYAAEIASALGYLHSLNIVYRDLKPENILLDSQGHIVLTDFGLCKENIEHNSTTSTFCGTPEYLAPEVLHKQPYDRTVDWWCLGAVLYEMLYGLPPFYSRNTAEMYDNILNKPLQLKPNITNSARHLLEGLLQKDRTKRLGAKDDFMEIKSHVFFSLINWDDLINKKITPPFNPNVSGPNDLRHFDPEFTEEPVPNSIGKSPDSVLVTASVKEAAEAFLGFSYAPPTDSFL
Cc1nc(Nc2ncc(C(=O)Nc3c(C)cccc3Cl)s2)cc(N2CCN(CCO)CC2)n1: 132%
CN(C)CCCn1cc(C2=C(c3c[nH]c4ccccc34)C(=O)NC2=O)c2ccccc21: 48.6%
Cn1cnc2cc3c(Nc4cccc(Br)c4)ncnc3cc21: 115%
CC(C)c1nn(-c2c(Cl)cccc2Cl)c2nc(Cc3ccc(OCCO)cc3)[nH]c(=O)c12: 118%
CCN1/C(=C/C(C)=O)Sc2ccc(OC)cc21: 121%
COc1ccc(-c2cnc3c(-c4ccsc4)cnn3c2)cc1: 81.8%
C[S+]([O-])c1ccc(-c2nc(-c3ccncc3)c(-c3ccc(F)cc3)[nH]2)cc1 (stereo not drawn): 97.3%
CC(=O)O/N=C1/C(c2c(O)[nH]c3cc(Br)ccc23)=Nc2ccccc21: 81.8%
Cc1ccc(NC(=O)c2ccc(CN3CCN(C)CC3)cc2)cc1Nc1nccc(-c2cccnc2)n1: 110%
Nc1[nH]nc2nnc(-c3c(-c4ccccc4)nn4ccccc34)cc12: 99.9%
O=c1cc(N2CCOCC2)oc2c1ccc1ccccc12: 98%

Study 2 — effect on: cell-free assay; method: competition with immobilised ligand; concentration: 1 µM; endpoint: remaining binding
SMILES: C[C@@]1(Cc2ccc(C#N)cc2)C(=O)N(c2cc(Cl)cc(Cl)c2)c2ncc(C(=O)NC3(c4nc(C5CCC5)no4)CC3)n21
Tyrosine-protein kinase ABL1, phosphorylated (ABL1, Homo sapiens, UniProt P00519, M351T): 100%
MAP4K5 (Homo sapiens, UniProt Q9Y4K4): 93%
ROCK1 (Homo sapiens, UniProt Q13464): 100%
TNIK (Homo sapiens, UniProt Q9UKE5): 100%
PIK3C2B (Homo sapiens, UniProt O00750): 100%
CLK4 (Homo sapiens, UniProt Q9HAZ1): 97%
PIK3CA (Homo sapiens, UniProt P42336, H1047Y): 100%
ERBB3 (Homo sapiens, UniProt P21860): 96%
Tyrosine-protein kinase ABL1, non-phosphorylated (ABL1, Homo sapiens, UniProt P00519): 100%
CIT (Homo sapiens, UniProt O14578): 100%
TNK2 (Homo sapiens, UniProt Q07912): 86%
PIK3CD (Homo sapiens, UniProt O00329): 73%
EPHB1 (Homo sapiens, UniProt P54762): 87%
MAP3K14 (Homo sapiens, UniProt Q99558): 100%
CLK1 (Homo sapiens, UniProt P49759): 100%

Study 3 — cell line: HaCaT; concentration: 100 µM; time: 36 h; endpoint: viability
CC(=O)O[C@@]12CO[C@@H]1C[C@H](O)[C@@]1(C)C(=O)[C@H](O)C3=C(C)[C@@H](OC(=O)[C@H](O)[C@@H](NC(=O)OC(C)(C)C)c4ccccc4)C[C@@](O)([C@@H](OC(=O)c4ccccc4)[C@H]21)C3(C)C: 17.6%
N=C(N)c1ccc(OCCCCCOc2ccc(C(=N)N)cc2)cc1: 5.06%
NS(=O)(=O)c1cc2c(cc1Cl)N=CNS2(=O)=O: 88.3%

Single results of other studies
COc1ccc(-c2c(Nc3ccccn3)[nH]c3c(C4=CCCCC4)c(-c4ccccc4)nn3c2=O)cc1
Vz/F (human, plasma; oral, 50 mg once daily): 94400 mL

Excerpt of the above (study 1):
Cn1cnc2cc3c(Nc4cccc(Br)c4)ncnc3cc21: 115%
CC(C)c1nn(-c2c(Cl)cccc2Cl)c2nc(Cc3ccc(OCCO)cc3)[nH]c(=O)c12: 118%
CCN1/C(=C/C(C)=O)Sc2ccc(OC)cc21: 121%
COc1ccc(-c2cnc3c(-c4ccsc4)cnn3c2)cc1: 81.8%
C[S+]([O-])c1ccc(-c2nc(-c3ccncc3)c(-c3ccc(F)cc3)[nH]2)cc1 (stereo not drawn): 97.3%
